Assay results from different studies.
Compare with care: the assays were run in different laboratories.
HSP90AA1 723-732 C-terminal peptide E to K: HSP90AA1 723-732 C-terminal peptide E to K, N-terminal 5-carboxyfluorescein (Homo sapiens)
FGFR3 isoform IIIc: FGFR3 isoform IIIc (unknown, UniProt Q61851)
acpP C12-acylated: acpP C12-acylated 1-78, C12 acyl on 4'-phosphopantetheine (Escherichia coli, UniProt P0A6A8)
T1: HSP90AA1 723-732 C-terminal peptide E to K, N-terminal 5-carboxyfluorescein (Homo sapiens); DDTSRMEKVD
B1: STUB1 (Homo sapiens, UniProt Q9UNE7); sequence looked up; chain MKGKEEKEGGARLGAGGGSPEKSPSAQELKEQGNRLFVGRKYPEAAACYGRAITRNPLVAVYYTNRALCYLKMQQHEQALADCRRALELDGQSVKAHFFLGQCQLEMESYDEAIANLQRAYSLAKEQRLNFGDDIPSALRIAKKKRWNSIEERRIHQESELHSYLSRLIAAERERELEECQRNHEGDEDDSHVRAQQACIEAKHDKYMADMDELFSQVDEKRKKRDIPDYLCGKISFELMREPCITPSGITYDRKDIEEHLQRVGHFDPVTRSPLTQEQLIPNLAMKEVIDAFISENGWVEDY
B2: FGF6 (Homo sapiens, UniProt P10767); chain SPAGTRANNTLLDSRGWGTLLSRSRAGLAGEIAGVNWESGYLVGIKRQRRLYCNVGIGFHLQVLPDGRISGTHEENPYSLLEISTVERGVVSLFGVRSALFVAMNSKGRLYATPSFQEECKFRETLLPNNYNAYESDLYQGTYIALSKYGRVKRGSKVSPIMTVTHFLPRI
B3: DNAJC7 (Homo sapiens, UniProt Q99615); sequence looked up; chain MAAAAECDVVMAATEPELLDDQEAKREAETFKEQGNAYYAKKDYNEAYNYYTKAIDMCPKNASYYGNRAATLMMLGRFREALGDAQQSVRLDDSFVRGHLREGKCHLSLGNAMAACRSFQRALELDHKNAQAQQEFKNANAVMEYEKIAETDFEKRDFRKVVFCMDRALEFAPACHRFKILKAECLAMLGRYPEAQSVASDILRMDSTNADALYVRGLCLYYEDCIEKAVQFFVQALRMAPDHEKACIACRNAKALKAKKEDGNKAFKEGNYKLAYELYTEALGIDPNNIKTNAKLYCNRGTVNSKLRKLDDAIEDCTNAVKLDDTYIKAYLRRAQCYMDTEQYEEAVRDYEKVYQTEKTKEHKQLLKNAQLELKKSKRKDYYKILGVDKNASEDEIKKAYRKRALMHHPDRHSGASAEVQKEEEKKFKEVGEAFTILSDPKKKTRYDSGQDLDEEGMNMGDFDPNNIFKAFFGGPGGFSFEASGPGNFFFQFG
B4: UGT1A9 (Homo sapiens, UniProt O60656); chain GKLLVVPMDGSHWFTMRSVVEKLILRGHEVVVVMPEVSWQLGRSLNCTVKTYSTSYTLEDLDREFKAFAHAQWKAQVRSIYSLLMGSYNDIFDLFFSNCRSLFKDKKLVEYLKESSFDAVFLDPFDNCGLIVAKYFSLPSVVFARGILCHYLEEGAQCPAPLSYVPRILLGFSDAMTFKERVRNHIMHLEEHLLCHRFFKNALEIASEILQTPVTEYDLYSHTSIWLLRTDFVLDYPKPVMPNMIFIGGINCHQGKPLPMEFEAYINASGEHGIVVFSLGSMVSEIPEKKAMAIADALGKIPQTVLWRYTGTRPSNLANNTILVKWLPQNDLLGHPMTRAFITHAGSHGVYESICNGVPMVMMPLFGDQMDNAKRMETKGAGVTLNVLEMTSEDLENALKAVINDKSYKENIMRLSSLHKDRPVEPLDLAVFWVEFVMRHKGAPHLRPAAHDLTWYQYHSLDVIGFLLAVVLTVAFITFKCCAYGYRKCLGKKGRVKKAHKSKTH

MMP2 fragment R252A/F297A/R368A (Homo sapiens)  reduction in gelatin cleavage (COL1A1/COL1A2 denatured, gelatin (Homo sapiens); zymography, DQ-gelatin assay; reference: wild type, higher = less cleavage): 90%
B1 (STUB1)  affinity change (T1, HSP90AA1 723-732 C-terminal peptide E to K, N-terminal 5-carboxyfluorescein (Homo sapiens); fluorescence polarisation; Lys mutant tracer, together with: 5-Fam peptide tracer 20 nM; reference: wt Hsp90α tracer, higher = weaker binding): > 3 fold
FGF8b (Homo sapiens)  cell proliferation (FGFR3 isoform IIIc; cell proliferation, MTT; BaF3-FGFR3c; 20 nM, 48 h, together with: unmodified decamer 4.9 µg/mL; reference: FGF 1 with heparin, higher = more proliferation): 13%
Syt1 (Mus musculus, UniProt P46096)  FRET efficiency change (Psen1 (Mus musculus, UniProt P49769); FLIM FRET; young mouse primary neurons; 15 min, together with: KCl 50 mM; reference: no KCl, higher = more FRET): 1.85 fold
fabF K128A (Escherichia coli)  condensation rate (acpP C12-acylated; holo-AcpP formation, HPLC; 10 µM, together with: malonyl-CoA): 2.34 min⁻¹
tuf (Methanothermobacter thermautotrophicus, UniProt O27132)  kcat increase (leuS, Alexa Fluor 488 label (Methanothermobacter thermautotrophicus, UniProt O27552); Leu-tRNA synthesis; reference: free enzyme, higher = faster synthesis): 8 fold
YAERPSRDHLYLPLEP (NFATC3 D-site peptide (Homo sapiens))  IC50 (Mapk14 D315S/D316E/E317A, pT180, pY182 (Rattus norvegicus, UniProt P70618); kinase activity, inhibitor, competitive kinase inhibition assay; peptide; together with: ATP 1 mM): > 100 µM
fabF R127A/K128A/R206A (Escherichia coli)  condensation rate (acpP C12-acylated; holo-AcpP formation, HPLC; 10 µM, together with: malonyl-CoA): 0.13 min⁻¹
FGF8 (Homo sapiens, UniProt P55075)  cell proliferation (FGFR3 isoform IIIc; cell proliferation, MTT; BaF3-FGFR3c; 20 nM, 48 h, together with: chondroitin sulfate A 4.9 µg/mL; reference: FGF 1 with heparin, higher = more proliferation): 34%
LVQKYCELHPLKPGCG (designed peptide; N-terminal bipyridyl thioether macrocycle, C-terminal amide)  relative kon (BRD4 fragment (Homo sapiens); SPR; peptide; reference: L1G, higher = faster association): 10 fold
B2 (FGF6)  cell proliferation (FGFR3 isoform IIIc; cell proliferation, MTT; BaF3-FGFR3c; 20 nM, 48 h, together with: unmodified decamer 4.9 µg/mL; reference: FGF 1 with heparin, higher = more proliferation): 3%
B3 (DNAJC7)  affinity change (T1, HSP90AA1 723-732 C-terminal peptide E to K, N-terminal 5-carboxyfluorescein (Homo sapiens); fluorescence polarisation; Lys mutant tracer, together with: 5-Fam peptide tracer 20 nM; reference: wt Hsp90α tracer, higher = weaker binding): > 3 fold
B4 (UGT1A9)  Vmax/Km (O=c1c(O)c(-c2ccccc2)oc2cccc(O)c12; steady-state kinetics; pH 7.4, 37 °C): 7400 µL/min/mg
MENVKKATATTTWMVPAAQ (L3MBTL3 52-70 T68A (Homo sapiens, UniProt Q96JM7-2); sequence looked up)  ΔH (Rbpj 53-474 (Mus musculus, UniProt P31266); ITC; peptide; pH 6.5, 25 °C, NaCl 150 mM): -11.7 kcal/mol
NrdA-a/NrdA-b (Aeh1 phage)  specific activity (NrdB small subunit, wild type (phage Aeh1); CDP reduction to dCDP; together with: NrdB, DTT): 946 U/mg
RLN2 mature  pEC50 (RXFP1 (Homo sapiens, UniProt Q9HBX9); cAMP, agonist, cAMP reporter gene assay; HEK293T): 10.8
F8 A2 subunit T657Y (human)  decay rate (F8 A1 and A3C1C2 dimer, factor VIIIa Y1792T; FXa generation activity loss; 1.5 nM, 23 °C; higher = faster decay): 0.13 min⁻¹

Repeated from above:
MMP2 fragment R252A/F297A/R368A (Homo sapiens)  reduction in gelatin cleavage (COL1A1/COL1A2 denatured, gelatin (Homo sapiens); zymography, DQ-gelatin assay; reference: wild type, higher = less cleavage): 90%
